# Assay results of several laboratories.
# Amino acid sequences for entries named in this document (tags omitted).
# UniProt P11712, whole entry: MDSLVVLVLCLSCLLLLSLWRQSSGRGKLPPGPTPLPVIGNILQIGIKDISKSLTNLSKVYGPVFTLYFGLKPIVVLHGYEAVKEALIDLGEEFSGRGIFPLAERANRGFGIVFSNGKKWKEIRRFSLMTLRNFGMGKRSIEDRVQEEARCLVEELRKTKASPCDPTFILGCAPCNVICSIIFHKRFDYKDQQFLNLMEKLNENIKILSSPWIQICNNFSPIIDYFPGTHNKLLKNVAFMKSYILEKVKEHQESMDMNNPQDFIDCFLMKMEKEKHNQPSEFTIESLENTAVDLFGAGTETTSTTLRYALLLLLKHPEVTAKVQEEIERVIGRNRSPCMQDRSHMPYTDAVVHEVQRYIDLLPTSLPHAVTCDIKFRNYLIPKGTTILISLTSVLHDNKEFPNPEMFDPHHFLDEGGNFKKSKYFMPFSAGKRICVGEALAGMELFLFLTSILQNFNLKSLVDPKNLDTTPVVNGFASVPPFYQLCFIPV
# UniProt P10635, whole entry: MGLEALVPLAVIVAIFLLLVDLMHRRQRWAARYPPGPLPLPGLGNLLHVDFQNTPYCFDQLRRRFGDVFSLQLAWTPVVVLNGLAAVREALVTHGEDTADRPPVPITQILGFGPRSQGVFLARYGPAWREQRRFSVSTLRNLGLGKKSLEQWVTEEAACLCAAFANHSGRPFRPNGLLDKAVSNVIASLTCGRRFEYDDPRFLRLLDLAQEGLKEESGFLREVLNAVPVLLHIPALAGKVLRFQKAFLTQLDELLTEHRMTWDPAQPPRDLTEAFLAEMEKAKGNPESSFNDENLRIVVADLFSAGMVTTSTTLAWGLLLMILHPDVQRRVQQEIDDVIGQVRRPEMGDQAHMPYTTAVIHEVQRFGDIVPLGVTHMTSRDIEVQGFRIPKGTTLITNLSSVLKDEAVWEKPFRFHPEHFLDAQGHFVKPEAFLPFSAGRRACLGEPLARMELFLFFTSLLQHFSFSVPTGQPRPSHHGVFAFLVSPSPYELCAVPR
# Lines come from different studies, so protocols differ. ± gives the spread as reported.
# CYP2C9: Cytochrome P450 2C9 (CYP2C9, Homo sapiens, UniProt P11712)
# CYP2D6: Cytochrome P450 2D6 (CYP2D6, Homo sapiens, UniProt P10635)
Structure (SMILES),tested on,test,test system,conditions,how to read,measurement,value
COc1ccc(S(=O)(=O)N2CCCN(CC(=O)Nc3ccc(OC)cc3OC)CC2)cc1,CYP2C9,"enzyme activity, inhibitor",,,,IC50,1.8 µM
Cc1cc(NC(=O)c2cccc(NC(=O)C3=CC(C)(C)CCC3=O)c2)ccc1Nc1nccc(-c2cccnc2)n1,,,rat plasma,"1 µM, 15 min",,compound remaining,104%
Cc1nc(-c2ccc(C(F)(F)F)c(F)c2)sc1COc1ccc(CCC(=O)O)cc1,HEK293T,,,18 h,,CC50,> 100 µM
CC(C)n1nnc(-c2cc(O)cc(Nc3ncnn4ccc(CN5CCC(N)CC5)c34)c2)n1,,,mouse,"subcutaneous, 30 mg/kg, 90 min",,brain to plasma ratio,0.01
Nc1ncc(-c2ccc3ncnc(N4CCc5cc(F)c(Cl)cc54)c3c2)cn1,,,"CD1 mouse, plasma","oral, 100 mg/kg",,Tmax,8 h
COc1cc([C@@H]2c3cc4c(cc3[C@@H](C=C(C)C)[C@H]3COC(=O)[C@H]23)OCO4)cc(OC)c1OC,HepG2,Alamar Blue,,48 h,,CC50,> 100 µM
CC(=NN=c1[nH]c2cc(F)c(F)cc2n1C)c1ccc(F)cn1,,"lung metastatic growth, lung luciferase","LM2, nude mice",10 mg/kg/day,,inhibition,> 70%
CCC1NC(=O)C(CCCNC(=N)N)NC(=O)C(C)(NC(=O)C(C)C)CCCCNC(=O)C(c2ccccc2)NC1=O (stereo not shown),,"cell growth, CellTiter-Glo","MLL-AF9 leukaemia cells, mouse",,,GI50,~10 µM
Cc1n[nH]c(C)c1CCOC(=O)c1cccc2c1oc(=O)n2C,CYP2D6,inhibitor,,10 µM,,inhibition,5.2%
Cc1cc(SCc2sc(-c3ccc(OC(F)(F)F)c(Cl)c3)nc2C)ccc1OCC(=O)O,HEK293T,,,18 h,,CC50,> 50 µM
Cc1c(-c2ccccc2)nn2c(=O)cc(-c3cccc(-c4nnn[nH]4)c3)[nH]c12,,,mouse,"10 mg/kg, 24 h",,plasma level,not detected
COc1cc([C@@H]2c3cc4c(cc3C=C(C=O)[C@H]2C(=O)OCCCBr)OCO4)cc(OC)c1OC,mouse splenocytes uninfected,Alamar Blue,,48 h,,CC50,98.2 ± 10.2 µM
Cc1cc(SCc2sc(-c3cccc(Cl)c3)nc2C)ccc1OCC(=O)O,HEK293T,,,18 h,,CC50,28.8 ± 5 µM
CCOC(=O)C1=C(C)NC2=C(C(=O)CC(C)(C)C2)C1c1ccc(OCC(=O)NN=Cc2cccc(C=O)c2)cc1OCC(=O)NN=Cc1cccc(C=O)c1 (stereo not shown),Bacillus cereus,,EMC 19,"concentration not given, 24 h",,inhibition zone diameter,4.1 ± 0.01 mm
COc1ccc(CC(=O)OCc2ccc(-n3cccn3)cc2)cc1F,CYP2C9,inhibitor,,10 µM,,inhibition,11.2%
CCOc1ccc(S(=O)(=O)NC(=O)Cc2ccc(I)cc2)cc1Br,MDCKII-MDR1,,,,relative to: B-A over A-B,efflux ratio,1.35
CC(C)c1ccc(NC(=O)C2CC3CCC2C3)cc1 (stereo not shown),CYP2D6,"enzyme activity, inhibitor",,,,IC50,> 30 µM
Cc1cc(SCc2sc(-c3ccc(Cl)cc3)nc2C)ccc1OCC(=O)O,HEK293T,,,18 h,,CC50,> 100 µM
CCCSc1nc(N[C@@H]2C[C@H]2c2ccc(F)c(F)c2)c2nnn([C@@H]3C[C@H](O)[C@@H](O)[C@H]3O)c2n1,,,"rat, female, plasma","oral, 60 mg/kg/day ticagrelor, week 52",,AUC,39.4 µM·h
COc1cc([C@@H]2c3cc4c(cc3[C@](O)(C3(O)CCOCC3)[C@H]3COC(=O)[C@H]23)OCO4)cc(OC)c1OC,mouse splenocytes uninfected,Alamar Blue,,48 h,,CC50,4.3 ± 0.6 µM
CCOc1ccccc1Nc1nnc(SCC(=O)Nc2cc(F)ccc2F)s1,Jurkat,MTS,,"up to 300 µM, 24 h",,viability,> 85%
COc1cc([C@@H]2c3cc4c(cc3[C@@H](OC(C)C)[C@H]3COC(=O)[C@H]23)OCO4)cc(OC)c1OC,mouse splenocytes uninfected,Alamar Blue,,48 h,,CC50,38 ± 2.5 µM
"C=CC(=O)N1CCC(c2cc(Nc3cc4n(n3)CCOC4)c3ncnn3c2)C1 (single isomer, unassigned)",TMD8 wild type,"calcium flux, FLIPR",,"1 h preincubation, with: anti-IgM",,IC50,> 1 µM
CCn1nccc1N=CC1=Cc2cc3c(cc2[C@@H](c2cc(OC)c(OC)c(OC)c2)[C@@H]1C(=O)OC)OCO3,HepG2,Alamar Blue,,48 h,,CC50,> 100 µM
Cc1cc(SCc2sc(-c3ccc4c(c3)OCCO4)nc2C)ccc1OCC(=O)O,HEK293T,,,18 h,,CC50,> 80 µM
COc1cc([C@@H]2c3cc4c(cc3C=C(C=O)[C@H]2C(=O)OCCCn2cnc3c(Cl)ncnc32)OCO4)cc(OC)c1OC,mouse splenocytes uninfected,Alamar Blue,,48 h,,CC50,42 ± 1.9 µM
Cc1cc(SCc2sc(-c3cc(F)cc(Cl)c3)nc2C)ccc1OCC(=O)O,HEK293T,,,18 h,,CC50,> 50 µM
COC(=O)[C@@H]1C(C=Nc2ccccc2O)=Cc2cc3c(cc2[C@H]1c1cc(OC)c(OC)c(OC)c1)OCO3,mouse splenocytes uninfected,Alamar Blue,,48 h,,CC50,> 100 µM
Cc1cc(SCc2sc(-c3ccc(C(F)(F)F)cc3C(F)(F)F)nc2C)ccc1OCC(=O)O,HEK293T,,,18 h,,CC50,> 50 µM
CCOC(=O)COC(=O)[C@@H]1C(C=O)=Cc2cc3c(cc2[C@H]1c1cc(OC)c(OC)c(OC)c1)OCO3,HepG2,Alamar Blue,,48 h,,CC50,10.4 ± 0.8 µM
Cc1cc(OCc2sc(-c3ccc(C(F)(F)F)c(F)c3)nc2C)ccc1OCC(=O)O,HEK293T,,,18 h,,CC50,> 100 µM

# A few entries again:
Structure (SMILES),tested on,test,test system,conditions,how to read,measurement,value
COc1cc([C@@H]2c3cc4c(cc3[C@@H](OC(C)C)[C@H]3COC(=O)[C@H]23)OCO4)cc(OC)c1OC,mouse splenocytes uninfected,Alamar Blue,,48 h,,CC50,38 ± 2.5 µM
CCCSc1nc(N[C@@H]2C[C@H]2c2ccc(F)c(F)c2)c2nnn([C@@H]3C[C@H](O)[C@@H](O)[C@H]3O)c2n1,,,"rat, female, plasma","oral, 60 mg/kg/day ticagrelor, week 52",,AUC,39.4 µM·h
COC(=O)[C@@H]1C(C=Nc2ccccc2O)=Cc2cc3c(cc2[C@H]1c1cc(OC)c(OC)c(OC)c1)OCO3,mouse splenocytes uninfected,Alamar Blue,,48 h,,CC50,> 100 µM
